# Published values of several laboratories.
# Lines come from different studies, so protocols differ.
# Organism: Staphylococcus aureus
SMILES,test,test system,setting,MIC
CC(C)C[C@H](NC(=O)[C@H](CCCCN)NC(=O)C1CCC=CCCC(NC(=O)[C@H](CCCCN)NC(=O)[C@@H](N)CC(C)C)C(=O)N[C@@H](CCCCN)C(=O)NC2CCC=CCCC(NC(=O)[C@H](CCCCN)NC(=O)CNC(=O)[C@H]3CCCN3C(=O)[C@H](CCCCN)NC2=O)C(=O)N[C@@H](CCCCN)C(=O)N1)C(N)=O (stereo partly shown),broth microdilution,"ATCC 29737, Mueller-Hinton broth","18 h, 37 °C",128 µM
N=C(N)NCCC[C@H](NC(=O)[C@H](CCCNC(=N)N)NC(=O)[C@H](Cc1ccccc1)NC(=O)[C@H](CO)NC(=O)[C@H](Cc1ccccc1)NC(=O)[C@H](Cc1c[nH]c2ccccc12)NC(=O)[C@H](Cc1ccccc1)NC(=O)[C@H](CO)NC(=O)[C@H](Cc1ccccc1)NC(=O)[C@H](CCCNC(=N)N)NC(=O)[C@@H](N)CCCNC(=N)N)C(N)=O,,MRSA 43300,"24 h, 37 °C",128 µM
CN[C@H](CC(C)C)C(=O)N[C@H]1C(=O)N[C@@H](CC(N)=O)C(=O)N[C@H]2C(=O)N[C@H]3C(=O)N[C@H](C(=O)N[C@H](C(=O)NCc4cn(CCCCC(=O)N[C@H](C(=O)N[C@@H](CCN)C(=O)N[C@H]5CCNC(=O)[C@H]([C@@H](C)O)NC(=O)[C@H](CCN)NC(=O)[C@H](CCN)NC(=O)[C@H](CC(C)C)NC(=O)[C@@H](CC(C)C)NC(=O)[C@H](CCN)NC5=O)[C@@H](C)O)nn4)c4cc(O)cc(O)c4-c4cc3ccc4O)[C@H](O)c3ccc(c(Cl)c3)Oc3cc2cc(c3O[C@@H]2O[C@H](CO)[C@@H](O)[C@H](O)[C@H]2O[C@H]2C[C@](C)(N)[C@H](O)[C@H](C)O2)Oc2ccc(cc2Cl)[C@H]1O,,LIM-2 VISA,,0.79 µM
CC[C@H](C)[C@H](NC(=O)[C@@H](CCCNC(=N)N)NC(=O)[C@H](CCCNC(=N)N)NC(=O)[C@H](CCC(=O)O)NC(=O)[C@H](Cc1c[nH]c2ccccc12)NC(=O)[C@H](CCCNC(=N)N)NC(=O)[C@@H]1CCCN1C(=O)[C@H](CCCNC(=N)N)NC(=O)[C@@H]1CCCN1C(=O)[C@H](CC(C)C)NC(=O)[C@H](Cc1ccc(O)cc1)NC(=O)[C@@H]1CCCN1C(=O)[C@@H]1CCCN1C(=O)[C@H](CCCCN)NC(=O)[C@H](CC(=O)O)NC(=O)[C@@H](N)C(C)C)C(=O)N[C@@H](Cc1ccc(O)cc1)C(=O)N[C@@H](CC(N)=O)C(=O)N[C@H](CCCNC(=N)N)C(N)=O,broth microdilution,DSM 6247,"18 h, 37 °C, 25% MHB2",> 128 µg/mL
C#CCOc1ccc(CN[C@@]2(C)C[C@H](O[C@H]3[C@H](Oc4c5cc6cc4Oc4ccc(cc4Cl)[C@@H](O)[C@@H](NC(=O)[C@@H](CC(C)C)NC)C(=O)N[C@@H](CC(N)=O)C(=O)N[C@H]6C(=O)N[C@H]4C(=O)N[C@H](C(=O)N[C@H](C(=O)NCC(N)=O)c6cc(O)cc(O)c6-c6cc4ccc6O)[C@H](O)c4ccc(c(Cl)c4)O5)O[C@H](CO)[C@@H](O)[C@@H]3O)O[C@@H](C)[C@H]2O)cc1OC,,NRS402 VISA,,2 µM
CC[C@H](C)[C@H](N)C(=O)N1CCC[C@H]1C(=O)N[C@@H](Cc1ccccc1)C(=O)N[C@@H](Cc1c[nH]c2ccccc12)C(=O)N[C@@H](CCCNC(=N)N)C(=O)N[C@@H](Cc1c[nH]c2ccccc12)C(=O)N[C@@H](CC(C)C)C(=O)N[C@@H](CC(C)C)C(=O)N[C@@H](CCC(N)=O)C(=O)N[C@@H](CCCNC(=N)N)C(=O)N[C@@H](CC(C)C)C(=O)N1CCC[C@H]1C(=O)NCC(=O)O,broth microdilution,ATCC 29213,,19 µM
Cc1ccc2[nH]c3c(c2c1)CCCC3NCCc1ccc(O)cc1 (stereo not shown),broth microdilution,SG511 daptomycin-resistant,,16 µg/mL
COc1ccc2ccc(O)c(/C=N/[C@H]3CCCC[C@H]3/N=C/c3cccc(OC)c3O)c2c1,"bacterial growth, broth microdilution",vancomycin-intermediate,,> 40 µM
CCCCCCCCCCCCCC(=O)N[C@H]1C(=O)N[C@@H](CN)C(=O)N[C@@H](CO)C(=O)N[C@@H](Cc2ccc(O)cc2)C(=O)O[C@H]1C,,SH1000,"added: phosphatidylethanolamine, molar ratio 2",8 µg/mL
CN[C@H](CC(C)C)C(=O)N[C@H]1C(=O)N[C@@H](CC(N)=O)C(=O)N[C@H]2C(=O)N[C@H]3C(=O)N[C@H](C(=O)N[C@H](C(=O)NCc4cn(CC(=O)N[C@H](C(=O)N[C@@H](CCN)C(=O)N[C@H]5CCNC(=O)[C@H]([C@@H](C)O)NC(=O)[C@H](CCN)NC(=O)[C@H](CCN)NC(=O)[C@H](CC(C)C)NC(=O)[C@@H](CC(C)C)NC(=O)[C@H](CCN)NC5=O)[C@@H](C)O)nn4)c4cc(O)cc(O)c4-c4cc3ccc4O)[C@H](O)c3ccc(c(Cl)c3)Oc3cc2cc(c3O[C@@H]2O[C@H](CO)[C@@H](O)[C@H](O)[C@H]2O[C@H]2C[C@](C)(N)[C@H](O)[C@H](C)O2)Oc2ccc(cc2Cl)[C@H]1O,,NRS402 VISA,,6 µM
CC(=O)N[C@@H](CC(C)C)C(=O)N[C@H]1CSSC[C@@H](C(=O)N2CCC[C@H]2C(N)=O)NC(=O)[C@H]([C@@H](C)O)NC(=O)[C@H](C(C)C)NC(=O)[C@H]([C@@H](C)O)NC(=O)[C@H](CCCCN)NC(=O)[C@H](CC(C)C)NC(=O)[C@H](Cc2ccccc2)NC(=O)[C@H](Cc2ccc(O)cc2)NC(=O)[C@H](CC(C)C)NC(=O)[C@H](CCCCN)NC(=O)[C@H](Cc2ccccc2)NC(=O)[C@H](CCCNC(=N)N)NC(=O)[C@H](CCC(N)=O)NC(=O)[C@H](CC(C)C)NC(=O)[C@H](CCCCN)NC(=O)[C@@H]2CCCN2C(=O)[C@H](CCCCN)NC(=O)[C@H](C(C)C)NC(=O)[C@H](CC(N)=O)NC(=O)[C@H](Cc2ccc(O)cc2)NC(=O)[C@H]([C@@H](C)O)NC1=O,broth dilution,laboratory strain,24 h,10 to 20 µM
CC(C)CCCCCCCCC/C=C/C(=O)N[C@@H](CC(N)=O)C(=O)N[C@H]1CNC(=O)[C@@H]2CCCN2C(=O)[C@H](C(C)C)NC(=O)[C@@H](CN)NC(=O)CNC(=O)[C@H](CC(=O)O)NC(=O)CNC(=O)[C@H](CC(=O)O)NC(=O)[C@H](CC(=O)O)NC(=O)[C@H]2CCCCN2C1=O,broth microdilution,"MRSA USA300, Mueller-Hinton broth, Mg2+ 10 mg/L","16 h, 37 °C, added: Ca2+ 1.0 mM",16 µg/mL
CC[C@H](C)[C@@H]1NC(=O)[C@H](CO)NC(=O)C(C)(CCCCN)NC(=O)[C@@H]2CSSC[C@@H](C(=O)N[C@@H](Cc3ccc(O)cc3)C(N)=O)NC(=O)[C@H](CCCCN)NC(=O)[C@@H]3CSSC[C@H](NC(=O)[C@H](CCCNC(=N)N)NC(=O)C(C)(CC(C)C)NC(=O)[C@H](CC(=O)O)NC(=O)[C@H](CC(=O)O)NC(=O)[C@H](CCC(=O)O)NC(=O)[C@H](CC(N)=O)NC(=O)[C@H](Cc4c[nH]c5ccccc45)NC(=O)C(C)(CC)NC(=O)CNC(=O)[C@H](CC(N)=O)NC(=O)[C@@H](NC(=O)CNC(=O)[C@H](Cc4ccccc4)NC(=O)CN)CSSC[C@H](NC(=O)[C@H](Cc4ccc(O)cc4)NC(=O)CNC(=O)CNC(=O)[C@H](CCCCN)NC(=O)[C@H](Cc4ccc(O)cc4)NC(=O)[C@H]4CCCN4C(=O)[C@@H]4CCCN4C1=O)C(=O)N[C@@H](C)C(=O)N[C@@H](CCCCN)C(=O)N1CCC[C@@H]1C(=O)NCC(=O)N[C@@H](Cc1ccccc1)C(=O)N[C@@H](C(C)C)C(=O)N3)C(=O)N[C@@H](Cc1c[nH]cn1)C(=O)NC(C)(C)C(=O)N[C@@H](Cc1c[nH]cn1)C(=O)N2 (stereo partly shown),broth microdilution,USA300 MRSA,18 h,2 µM

# A few entries again:
SMILES,test,test system,setting,MIC
CCCCCCCCCCCCCC(=O)N[C@H]1C(=O)N[C@@H](CN)C(=O)N[C@@H](CO)C(=O)N[C@@H](Cc2ccc(O)cc2)C(=O)O[C@H]1C,,SH1000,"added: phosphatidylethanolamine, molar ratio 2",8 µg/mL
